{"data": "Measured values from different studies", "note": "Each numbered part is a random draw from the data of one study; scales do not carry over between parts.", "chain of UniProt Q5XXA6 (whole entry, unmodified, looked up)": "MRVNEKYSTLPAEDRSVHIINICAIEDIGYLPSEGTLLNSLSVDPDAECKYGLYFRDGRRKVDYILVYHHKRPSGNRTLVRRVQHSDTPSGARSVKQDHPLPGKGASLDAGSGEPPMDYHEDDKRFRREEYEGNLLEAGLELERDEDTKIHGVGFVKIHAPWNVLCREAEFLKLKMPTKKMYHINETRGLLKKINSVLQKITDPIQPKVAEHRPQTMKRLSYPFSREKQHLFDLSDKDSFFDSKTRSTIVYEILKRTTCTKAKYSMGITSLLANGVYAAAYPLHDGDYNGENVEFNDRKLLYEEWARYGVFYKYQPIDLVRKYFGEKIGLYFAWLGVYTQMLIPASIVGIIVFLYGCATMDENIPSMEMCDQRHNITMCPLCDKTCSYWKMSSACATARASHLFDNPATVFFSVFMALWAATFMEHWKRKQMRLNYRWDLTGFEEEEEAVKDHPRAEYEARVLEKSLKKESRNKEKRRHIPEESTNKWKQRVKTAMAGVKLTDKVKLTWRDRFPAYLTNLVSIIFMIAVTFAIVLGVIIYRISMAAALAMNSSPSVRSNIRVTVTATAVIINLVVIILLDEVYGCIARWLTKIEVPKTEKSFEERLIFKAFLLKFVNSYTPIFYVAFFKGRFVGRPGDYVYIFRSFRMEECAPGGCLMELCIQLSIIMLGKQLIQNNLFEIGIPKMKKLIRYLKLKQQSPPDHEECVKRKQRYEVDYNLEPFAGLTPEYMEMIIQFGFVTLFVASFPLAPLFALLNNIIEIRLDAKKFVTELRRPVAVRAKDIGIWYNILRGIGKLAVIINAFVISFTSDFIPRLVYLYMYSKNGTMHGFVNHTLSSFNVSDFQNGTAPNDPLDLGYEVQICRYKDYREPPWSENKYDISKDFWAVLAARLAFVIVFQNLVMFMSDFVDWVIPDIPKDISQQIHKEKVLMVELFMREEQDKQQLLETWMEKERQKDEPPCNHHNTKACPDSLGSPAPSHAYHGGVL", "chain of UniProt Q6ZN16 (whole entry, looked up)": "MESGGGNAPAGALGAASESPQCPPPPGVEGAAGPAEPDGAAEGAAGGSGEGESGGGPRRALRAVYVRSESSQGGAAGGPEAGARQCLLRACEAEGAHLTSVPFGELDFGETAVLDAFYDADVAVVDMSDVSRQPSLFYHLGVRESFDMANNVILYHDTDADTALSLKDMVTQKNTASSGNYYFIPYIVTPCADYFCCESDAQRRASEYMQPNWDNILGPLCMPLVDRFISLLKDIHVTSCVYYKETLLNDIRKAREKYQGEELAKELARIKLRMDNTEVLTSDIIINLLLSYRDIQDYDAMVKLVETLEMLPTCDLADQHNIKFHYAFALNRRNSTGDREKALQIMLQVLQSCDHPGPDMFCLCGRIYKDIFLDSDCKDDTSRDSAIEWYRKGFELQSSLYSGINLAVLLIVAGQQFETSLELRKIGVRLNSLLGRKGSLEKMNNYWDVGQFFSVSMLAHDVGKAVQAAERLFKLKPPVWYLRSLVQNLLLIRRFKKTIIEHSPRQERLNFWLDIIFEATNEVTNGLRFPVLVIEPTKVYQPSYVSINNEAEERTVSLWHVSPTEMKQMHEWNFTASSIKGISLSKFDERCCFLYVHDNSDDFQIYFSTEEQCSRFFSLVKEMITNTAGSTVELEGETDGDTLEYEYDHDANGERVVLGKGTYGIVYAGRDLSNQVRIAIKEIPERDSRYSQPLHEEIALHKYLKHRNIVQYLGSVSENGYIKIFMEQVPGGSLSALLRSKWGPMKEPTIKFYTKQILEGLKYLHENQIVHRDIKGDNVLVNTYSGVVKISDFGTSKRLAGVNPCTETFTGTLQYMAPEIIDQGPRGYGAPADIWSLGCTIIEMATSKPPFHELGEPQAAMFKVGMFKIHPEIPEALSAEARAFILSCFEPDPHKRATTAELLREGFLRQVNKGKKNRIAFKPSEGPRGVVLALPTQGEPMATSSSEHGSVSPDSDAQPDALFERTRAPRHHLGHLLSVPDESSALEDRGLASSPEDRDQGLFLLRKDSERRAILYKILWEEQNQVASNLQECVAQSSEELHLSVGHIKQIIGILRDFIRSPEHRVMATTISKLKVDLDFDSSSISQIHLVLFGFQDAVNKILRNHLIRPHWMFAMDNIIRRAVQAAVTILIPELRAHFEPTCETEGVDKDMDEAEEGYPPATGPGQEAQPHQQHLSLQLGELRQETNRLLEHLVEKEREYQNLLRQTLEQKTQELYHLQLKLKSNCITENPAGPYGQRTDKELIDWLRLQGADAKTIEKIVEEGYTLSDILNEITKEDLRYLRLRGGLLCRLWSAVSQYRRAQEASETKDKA", "chain of UniProt Q9P286 (whole entry, looked up)": "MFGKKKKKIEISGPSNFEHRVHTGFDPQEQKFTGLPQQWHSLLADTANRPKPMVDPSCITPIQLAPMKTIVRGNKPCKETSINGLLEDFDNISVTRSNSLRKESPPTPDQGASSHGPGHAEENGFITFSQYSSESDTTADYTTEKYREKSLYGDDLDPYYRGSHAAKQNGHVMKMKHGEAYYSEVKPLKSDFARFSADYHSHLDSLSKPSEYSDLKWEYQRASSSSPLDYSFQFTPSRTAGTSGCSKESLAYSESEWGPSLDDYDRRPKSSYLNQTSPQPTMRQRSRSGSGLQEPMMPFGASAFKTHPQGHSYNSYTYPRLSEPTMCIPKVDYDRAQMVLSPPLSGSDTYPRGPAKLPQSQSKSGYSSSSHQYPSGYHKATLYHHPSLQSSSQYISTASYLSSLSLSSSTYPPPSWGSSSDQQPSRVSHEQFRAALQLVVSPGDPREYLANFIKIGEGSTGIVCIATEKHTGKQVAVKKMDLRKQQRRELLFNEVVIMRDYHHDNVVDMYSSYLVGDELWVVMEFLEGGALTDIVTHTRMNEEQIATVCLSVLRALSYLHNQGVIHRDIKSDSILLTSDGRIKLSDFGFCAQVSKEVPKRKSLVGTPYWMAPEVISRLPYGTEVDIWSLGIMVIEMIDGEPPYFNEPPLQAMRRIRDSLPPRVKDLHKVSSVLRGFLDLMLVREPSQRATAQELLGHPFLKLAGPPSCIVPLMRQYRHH", "chain of UniProt Q9NRM7 (whole entry, looked up)": "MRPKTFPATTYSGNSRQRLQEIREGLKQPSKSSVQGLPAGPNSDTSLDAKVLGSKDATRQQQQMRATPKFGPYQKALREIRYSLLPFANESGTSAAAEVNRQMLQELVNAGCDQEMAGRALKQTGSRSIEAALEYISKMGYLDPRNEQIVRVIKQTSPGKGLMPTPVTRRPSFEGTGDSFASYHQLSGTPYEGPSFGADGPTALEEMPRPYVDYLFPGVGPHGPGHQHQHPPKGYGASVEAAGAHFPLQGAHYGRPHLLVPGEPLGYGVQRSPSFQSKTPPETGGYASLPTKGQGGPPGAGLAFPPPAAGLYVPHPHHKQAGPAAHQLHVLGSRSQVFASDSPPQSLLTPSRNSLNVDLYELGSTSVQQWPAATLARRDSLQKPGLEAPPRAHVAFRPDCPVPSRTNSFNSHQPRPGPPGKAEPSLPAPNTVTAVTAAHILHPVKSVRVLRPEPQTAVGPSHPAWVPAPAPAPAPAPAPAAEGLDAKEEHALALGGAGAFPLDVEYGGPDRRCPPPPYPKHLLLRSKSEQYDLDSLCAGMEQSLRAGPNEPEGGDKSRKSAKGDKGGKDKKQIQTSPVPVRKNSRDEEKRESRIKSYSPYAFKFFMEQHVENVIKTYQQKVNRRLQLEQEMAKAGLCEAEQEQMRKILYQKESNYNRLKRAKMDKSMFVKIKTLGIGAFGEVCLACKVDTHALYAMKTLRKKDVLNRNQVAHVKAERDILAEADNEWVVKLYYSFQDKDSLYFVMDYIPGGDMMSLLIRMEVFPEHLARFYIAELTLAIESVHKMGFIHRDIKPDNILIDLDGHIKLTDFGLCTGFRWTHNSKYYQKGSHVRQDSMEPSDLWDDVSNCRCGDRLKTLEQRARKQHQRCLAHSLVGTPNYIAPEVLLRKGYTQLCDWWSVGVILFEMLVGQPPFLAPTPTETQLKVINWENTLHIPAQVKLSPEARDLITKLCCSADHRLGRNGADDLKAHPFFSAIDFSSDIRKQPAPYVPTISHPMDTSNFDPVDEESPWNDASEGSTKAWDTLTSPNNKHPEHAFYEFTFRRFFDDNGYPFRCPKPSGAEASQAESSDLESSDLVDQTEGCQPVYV"}
{"data": "Block 1", "SMILES": "C=CCc1ccc(O)c(-c2ccc(O)c(CC=C)c2)c1", "observed": "chloride current", "technique": "whole-cell voltage clamp"}
{"target": "Anoctamin-1 (ANO1, Homo sapiens, UniProt Q5XXA6, del476-501/F646A)", "setting": "membrane voltage 20 mV", "IC50": "5.76 µM"}
{"target": "Anoctamin-1 (ANO1, Homo sapiens, UniProt Q5XXA6, del476-501/F807I)", "assay": "inhibitor", "setting": "F781I mutant at 40 mV", "IC50": "6.19 µM"}
{"target": "Anoctamin-1 (ANO1, Homo sapiens, UniProt Q5XXA6, del476-501/R631D)", "assay": "inhibitor", "setting": "R605D mutant at -20 mV", "IC50": "19.9 µM"}
{"target": "Anoctamin-1 (ANO1, Homo sapiens, UniProt Q5XXA6, del476-501/E650A)", "setting": "membrane voltage -80 mV", "IC50": "6.4 µM"}
{"data": "Block 2", "host": "mouse", "sample": "microsomes or S9", "concentration": "2 µM", "time": "0.5 h"}
{"Structure (SMILES)": "CCc1nn2c(nnc3c(=O)n(NC(=O)c4ccccc4C)ccc32)c1-c1ccccc1", "remaining compound": "84.3%"}
{"Structure (SMILES)": "CN1CCC(Nc2ccn(-c3ncccc3C(F)(F)F)n2)CC1", "remaining compound": "74.2%"}
{"Structure (SMILES)": "Cc1ccccc1-c1nc2ccccc2cc1Cn1nc(NCCCO)c2c(N)ncnc21", "remaining compound": "3.36%"}
{"data": "Block 3", "target": "Beta-1 adrenergic receptor (ADRB1, Homo sapiens, UniProt P08588)", "action": "antagonist", "chain of UniProt P08588 (whole entry, looked up)": "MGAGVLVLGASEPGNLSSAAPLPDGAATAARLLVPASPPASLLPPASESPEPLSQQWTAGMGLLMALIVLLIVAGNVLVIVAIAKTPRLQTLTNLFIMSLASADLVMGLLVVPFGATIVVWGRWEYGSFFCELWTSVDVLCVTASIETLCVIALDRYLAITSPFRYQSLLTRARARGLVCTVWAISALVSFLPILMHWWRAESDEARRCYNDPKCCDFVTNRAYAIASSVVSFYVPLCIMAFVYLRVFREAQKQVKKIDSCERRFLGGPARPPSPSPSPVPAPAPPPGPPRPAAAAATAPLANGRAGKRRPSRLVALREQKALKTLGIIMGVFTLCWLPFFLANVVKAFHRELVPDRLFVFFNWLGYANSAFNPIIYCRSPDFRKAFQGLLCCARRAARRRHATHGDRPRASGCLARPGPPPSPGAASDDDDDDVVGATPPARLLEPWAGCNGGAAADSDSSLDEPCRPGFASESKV"}
{"SMILES": "O=c1oc2ccc(Cl)cc2cc1-c1nc2c(s1)CCc1ccccc1-2", "IC50": "≥ 100 µM"}
{"SMILES": "COc1cc(CNC(C)C)ccc1OCC(O)CN1CCSCC1 (stereo not shown)", "IC50": "≥ 100 µM"}
{"SMILES": "Cc1c(-c2ccnc(Nc3cc(Br)cc(C(F)(F)F)c3)n2)sc(=O)n1C", "IC50": "≥ 100 µM"}
{"data": "Block 4", "SMILES": "O=C(NCc1ncc(C(F)(F)F)cc1Cl)c1ccc2c(c1)C1(CCS(=O)(=O)CC1)[C@@H](C1CC1)N2S(=O)(=O)c1ccc(F)cc1", "observed": "cell-free assay", "technique": "competition with immobilised ligand", "concentration": "1 µM"}
{"target": "Ephrin type-B receptor 2 (EPHB2, Homo sapiens, UniProt P29323)", "remaining binding [%]": 100}
{"target": "Non-receptor tyrosine-protein kinase TYK2, JH2 (TYK2, Homo sapiens, UniProt P29597)", "remaining binding [%]": 73}
{"target": "Mitogen-activated protein kinase kinase kinase kinase 1 (MAP4K1, Homo sapiens, UniProt Q92918)", "remaining binding [%]": 89}
{"target": "Mitogen-activated protein kinase kinase kinase 15 (MAP3K15, Homo sapiens, UniProt Q6ZN16)", "remaining binding [%]": 78}
{"target": "Serine/threonine-protein kinase 10 (STK10, Homo sapiens, UniProt O94804)", "remaining binding [%]": 94}
{"target": "Serine/threonine-protein kinase PAK 5 (PAK5, Homo sapiens, UniProt Q9P286)", "remaining binding [%]": 74}
{"target": "Serine/threonine-protein kinase LATS2 (LATS2, Homo sapiens, UniProt Q9NRM7)", "remaining binding [%]": 99}
{"target": "Tyrosine-protein kinase JAK3, JH1 (JAK3, Homo sapiens, UniProt P52333)", "remaining binding [%]": 93}
{"data": "Other studies, line by line"}
{"SMILES": "COc1ccc(-c2c(Nc3ccccn3)[nH]c3c(C4=CCCCC4)c(-c4ccccc4)nn3c2=O)cc1", "test system": "human patients, plasma", "setting": "oral, 100 mg once daily, day 15, cycle 1, tau 24 h", "quantity": "AUC(0-tau) geometric mean", "result": "66300 ng·h/mL"}
{"note": "For quick reference, copied from above (block 4):"}
{"target": "Tyrosine-protein kinase JAK3, JH1 (JAK3, Homo sapiens, UniProt P52333)", "remaining binding [%]": 93}
